Assay results collected from several papers.
Compare with care: the assays were run in different laboratories. ± gives the spread as reported. ≈ marks a conversion by molar mass, not a printed value.
Organism: Escherichia coli

SMILES | assay | test system | conditions | how to read | measurement | value
CN1CC(=O)N=C1N.C[C@H](CCC(=O)O)[C@H]1CC[C@H]2[C@@H]3[C@H](O)C[C@@H]4C[C@H](O)CC[C@]4(C)[C@H]3CC[C@]12C | – | TISTR 117 | 1 mg per disc, 18 to 24 h, 37 °C, 6 mm disc | – | inhibition zone diameter | 7.3 ± 0.2 mm
CC[C@H](C)[C@@H]1NC(=O)[C@H](CCCCN)NC(=O)[C@@H](NC(=O)[C@H](C)NC(=O)[C@@H](NC(=O)[C@H](CC(C)C)NC(=O)[C@H](CC(N)=O)NC(=O)[C@@H](NC(=O)CNC(=O)[C@H](CC(C)C)NC(=O)[C@H](CCCNC(=N)N)NC(=O)[C@H](C)NC(=O)[C@H](CC(C)C)NC(=O)[C@H](CC(=O)O)NC(=O)[C@H](CCCCN)NC(=O)CNC(=O)[C@H](CC(C)C)NC(=O)CNC(=O)[C@H](CCCCN)NC(=O)[C@H](CO)NC(=O)[C@H](C)NC(=O)[C@H](Cc2ccccc2)NC(=O)[C@H](CCCCN)NC(=O)[C@H](C)NC(=O)[C@@H](NC(=O)CNC(=O)[C@H](CCCNC(=N)N)NC(=O)[C@H](Cc2ccccc2)NC(=O)[C@@H](NC(=O)[C@H](CO)NC(=O)[C@H](CO)NC(=O)[C@H](Cc2ccccc2)NC(=O)CN)[C@@H](C)CC)C(C)C)C(C)C)C(C)C)CSSC[C@@H](C(=O)O)NC(=O)[C@H](CCC(N)=O)NC(=O)[C@H](CCCCN)NC(=O)[C@H](CO)NC1=O | – | ATCC 8739 | 4 × MIC | – | time to complete killing | 10 min
CC[C@H](C)[C@H](NC(=O)[C@H](CCCCN)NC(=O)[C@H](CCCCN)NC(=O)[C@H](CC(C)C)NC(=O)[C@H](CCCCN)NC(=O)[C@H](CCC(=O)O)NC(=O)[C@H](CCCCN)NC(=O)[C@@H](NC(=O)[C@H](CCCCN)NC(=O)[C@H](CC(N)=O)NC(=O)[C@H](CCCNC(=N)N)NC(=O)[C@H](Cc1ccccc1)NC(=O)[C@H](CCCCN)NC(=O)[C@H](CCCNC(=N)N)NC(=O)[C@H](CC(C)C)NC(=O)[C@H](CCCNC(=N)N)NC(=O)[C@H](CCCCN)NC(=O)[C@H](CCCNC(=N)N)NC(=O)[C@H](CC(C)C)NC(=O)[C@@H](N)CC(C)C)[C@@H](C)CC)C(=O)NCC(=O)N[C@@H](CCC(N)=O)C(=O)N[C@@H](CCCCN)C(=O)N[C@H](C(=O)N[C@@H](CCC(N)=O)C(=O)NCC(=O)N[C@@H](Cc1ccccc1)C(=O)N[C@H](C(=O)N1CCC[C@H]1C(=O)N[C@@H](CCCCN)C(=O)N[C@@H](CC(C)C)C(=O)N[C@H](C(=O)N1CCC[C@H]1C(=O)N[C@@H](CCCNC(=N)N)C(=O)N[C@H](C(=O)N[C@@H](CCC(=O)O)C(=O)N[C@@H](CO)C(=O)O)[C@@H](C)O)C(C)C)C(C)C)[C@@H](C)CC | inhibition zone | Am. J23a | – | – | lethal concentration | 1.95 µM
O=C(O)[C@@H]1Cc2c([nH]c3ccccc23)[C@@H](c2ccc(I)cc2F)N1 | – | BL21(DE3) | 125 µM, 18 h | – | growth inhibition | 0%
CCCCCCCCCCCCCCCCCC(=O)N[C@@H](CCCCN)C(=O)N[C@@H](CCCCN)C(=O)N[C@@H](CCCNC(=N)N)C(=O)N[C@@H](CCCCN)C(=O)N[C@@H](CCCCN)C(N)=O | – | K12 | – | – | MBC | 64 µg/mL (≈ 67.2 µM)
O=c1c(O)ccc(Br)cc1O | – | – | – | – | MIC80 | 29.6 µM (≈ 6.42 µg/mL)
C[C@@](O)(C(F)F)[C@H](NC(=O)c1ccc(C#CC#CC2CC2)cc1)C(=O)NO | survival | NDM-1 producing, CD-1 mice, infection model | IV first dose then IP every 12 h, 5 days, first dose 2 h post-infection | – | ED50 | 3.6 mg/kg per dose
CC[C@H](C)[C@H](NC(=O)[C@H](CCN)NC(=O)CCCCCCCCCCCNC(=O)CCCCCOC(=O)c1cn(C2CC2)c2cc(N3CCNCC3)c(F)cc2c1=O)C(=O)N[C@@H](CCN)C(=O)N[C@H](Cc1ccccc1)C(=O)N[C@@H](CC(C)C)C(=O)N[C@@H](CCN)C(=O)N[C@@H](C(=O)N[C@@H](CC(C)C)C(=O)N[C@@H](CO)C(N)=O)C(C)C | – | – | 6.25 µM, 12 h, 37 °C | – | survival | 20.6%
CCCC(=O)NCC(=O)N[C@@H](CC(C)C)C(=O)N[C@@H](CC(C)C)C(=O)N[C@@H](CCCCN)C(=O)N[C@@H](CCCNC(=N)N)C(=O)N[C@H](C(=O)N[C@@H](CCCCN)C(=O)N[C@H](C(=O)N[C@@H](CC(C)C)C(=O)N[C@@H](CC(C)C)C(=O)NCCCC[C@H](NC(=O)[C@H](CC(C)C)NC(=O)[C@H](CC(C)C)NC(=O)[C@@H](NC(=O)[C@H](CCCCN)NC(=O)[C@@H](NC(=O)[C@H](CCCNC(=N)N)NC(=O)[C@H](CCCCN)NC(=O)[C@H](CC(C)C)NC(=O)[C@H](CC(C)C)NC(=O)CNC(=O)CCC)[C@@H](C)CC)[C@@H](C)O)C(=O)NCCCC[C@H](NC(=O)[C@H](CCCCNC(=O)[C@H](CC(C)C)NC(=O)[C@H](CC(C)C)NC(=O)[C@@H](NC(=O)[C@H](CCCCN)NC(=O)[C@@H](NC(=O)[C@H](CCCNC(=N)N)NC(=O)[C@H](CCCCN)NC(=O)[C@H](CC(C)C)NC(=O)[C@H](CC(C)C)NC(=O)CNC(=O)CCC)[C@@H](C)CC)[C@@H](C)O)NC(=O)[C@H](CC(C)C)NC(=O)[C@H](CC(C)C)NC(=O)[C@@H](NC(=O)[C@H](CCCCN)NC(=O)[C@@H](NC(=O)[C@H](CCCNC(=N)N)NC(=O)[C@H](CCCCN)NC(=O)[C@H](CC(C)C)NC(=O)[C@H](CC(C)C)NC(=O)CNC(=O)CCC)[C@@H](C)CC)[C@@H](C)O)C(N)=O)[C@@H](C)O)[C@@H](C)CC | checkerboard | ATCC 25922 | added: polymyxin B | – | FIC index | 0.125
CC(C)C[C@H](NC(=O)[C@H](CCCNC(=N)N)NC(=O)[C@H](C)NC(=O)[C@H](CC(C)C)NC(=O)[C@H](CCCNC(=N)N)NC(=O)[C@H](C)NC(=O)[C@H](CCCCN)NC(=O)[C@H](CC(C)C)NC(=O)[C@H](CCCNC(=N)N)NC(=O)[C@H](Cc1ccc(O)cc1)NC(=O)[C@H](CC(C)C)NC(=O)[C@H](CCCNC(=N)N)NC(=O)[C@H](C)NC(=O)[C@H](CCCNC(=N)N)NC(=O)[C@H](CC(C)C)NC(=O)[C@H](CCCCN)NC(=O)[C@H](C)NC(=O)[C@H](CC(C)C)NC(=O)[C@H](CCCNC(=N)N)NC(=O)[C@H](C)NC(=O)[C@@H](N)CCCCN)C(N)=O | LIVE/DEAD staining | 10 mM phosphate buffer | MIC, 30 min, pH 7.4, 37 °C | – | dead cells | ≤ 80%
CC[C@H](C)[C@H](NC(=O)[C@H](CCCCN)NC(=O)[C@H](CCCCN)NC(=O)[C@H](CC(C)C)NC(=O)[C@H](CCCCN)NC(=O)[C@H](CCC(=O)O)NC(=O)[C@H](CCCCN)NC(=O)[C@@H](NC(=O)[C@H](CCCCN)NC(=O)[C@H](CC(N)=O)NC(=O)[C@H](CCCNC(=N)N)NC(=O)[C@H](Cc1ccccc1)NC(=O)[C@H](CCCCN)NC(=O)[C@H](CCCNC(=N)N)NC(=O)[C@H](CC(C)C)NC(=O)[C@H](CCCNC(=N)N)NC(=O)[C@H](CCCCN)NC(=O)[C@H](CCCNC(=N)N)NC(=O)[C@H](CC(C)C)NC(=O)[C@@H](N)CCCNC(=N)N)[C@@H](C)CC)C(=O)NCC(=O)N[C@@H](CCC(N)=O)C(=O)N[C@@H](CCCCN)C(=O)N[C@H](C(=O)N[C@@H](CCC(N)=O)C(=O)NCC(=O)N[C@@H](Cc1ccccc1)C(=O)N[C@H](C(=O)N1CCC[C@H]1C(=O)N[C@@H](CCCCN)C(=O)N[C@@H](CC(C)C)C(=O)N[C@@H](CCC(N)=O)C(=O)N1CCC[C@H]1C(=O)N[C@@H](CO)C(=O)N[C@@H](CCCCN)C(=O)N[C@@H](CCC(N)=O)C(=O)N[C@@H](CO)C(=O)O)C(C)C)[C@@H](C)CC | inhibition zone | JM109 | – | – | lethal concentration | 3 µM
ONCc1cc(C(F)(F)F)cc(C(F)(F)F)c1 | microbial growth | – | 8 h | – | MIC50 | < 60 µg/mL
CCCCCCCCCC(=O)NCC(=O)N[C@@H](CC(C)C)C(=O)N[C@@H](CC(C)C)C(=O)N[C@@H](CCCCN)C(=O)N[C@@H](CCCNC(=N)N)C(=O)N[C@H](C(=O)N[C@@H](CCCCN)C(=O)N[C@H](C(=O)N[C@@H](CC(C)C)C(=O)N[C@@H](CC(C)C)C(N)=O)[C@@H](C)O)[C@@H](C)CC | checkerboard | ATCC 25922 | added: polymyxin B | – | FIC index | 0.25
CC(C)c1ccc2c(c1)CCC1C(C)(CN(CC(O)C[N+](C)(C)C)CC(O)C[N+](C)(C)C)CCCC21C (stereo not shown) | – | ATCC 25922 | – | relative to: HC50 over MIC | selectivity index | > 4
CCCC(=O)NCC(=O)N[C@@H](CC(C)C)C(=O)N[C@@H](CC(C)C)C(=O)N[C@@H](CCCCN)C(=O)N[C@@H](CCCNC(=N)N)C(=O)N[C@H](C(=O)N[C@@H](CCCCN)C(=O)N[C@H](C(=O)N[C@@H](CC(C)C)C(=O)N[C@@H](CC(C)C)C(=O)NCCCC[C@H](NC(=O)[C@H](CC(C)C)NC(=O)[C@H](CC(C)C)NC(=O)[C@@H](NC(=O)[C@H](CCCCN)NC(=O)[C@@H](NC(=O)[C@H](CCCNC(=N)N)NC(=O)[C@H](CCCCN)NC(=O)[C@H](CC(C)C)NC(=O)[C@H](CC(C)C)NC(=O)CNC(=O)CCC)[C@@H](C)CC)[C@@H](C)O)C(N)=O)[C@@H](C)O)[C@@H](C)CC | checkerboard | ATCC 25922 | added: gentamicin | – | FIC index | 0.5
C[C@]1(COC(=O)c2ccccc2O)[C@H](C(=O)O)N2C(=O)/C(=C/c3ccccn3)[C@H]2S1(=O)=O | broth microdilution | MG1655 expressing CTX-M-2 | 16 µg/mL | – | MIC of ceftazidime | 64 µg/mL
